Published values collected from several papers.
Protocols differ between the studies behind these lines. ± marks the error that the study gave.

SMILES | test | test system | setting | how to read | measurement | result
COc1ccc(C2CC(c3ccc(C)cc3)=Nc3ccccc3S2)cc1OC (stereo not shown) |  | Wistar rat, STZ-induced diabetes | oral, 10 mg/kg once daily, day 7 |  | blood glucose | 286 mg/dL
C=C(c1ncc(C(=O)O)cn1)c1cc2c(cc1C)C(C)(C)CCC2(C)C | RNA sequencing, item: Ccl6 mRNA | rat, brain | dose not given, 24 h, single dose | baseline: vehicle | log2 fold change | -1.46
COc1ccc(-c2oc3ccccc3c(=O)c2OCc2ccccc2)cc1 |  | diabetic rat | 5 mg/kg, day 7, p-nitrophenyl β-glucoside induced |  | blood glucose | 306 ± 4.58 mg/dL
Cc1cccc(O[C@H]2CCC[C@@H](C(C)CNCc3ccncc3)C2)c1 (relative stereo) |  | APP/PS1 mouse | dose not given, chronic treatment |  | plasma MIP-2 level | decreased
Cc1ccc(C2=C(c3ccc([18F])cc3)C(=O)OC2(C)C)cc1 | PET/CT | mouse, SK-OV-3/COX-1 peritoneal tumour, muscle | retro-orbital, 5 min |  | normalized muscle uptake | 3.4 ± 0.9
O=C1CC(c2ccc(O)cc2)Oc2cc3oc4cc(O)c(O)cc4c3c(O)c21 (racemic) | DPPH scavenging, absorbance |  |  |  | EC50 | 120 µM
NS(=O)(=O)NCC(O)c1ccccc1F (stereo not shown) | MES seizures | mouse | intraperitoneal |  | ED50 | 75 mg/kg
CCCCCCCCC=CCCCCCCCC(=O)OCC1OC(n2ccc(N)nc2=O)C(F)(F)C1O (stereo not shown) |  | female nude mouse, colon xenograft, patient-derived colon tumour | oral, 150 mg/kg, dosed days 1 and 8 | baseline: saline control | optimal tumour volume T/C | 5%
CSCC[C@@H]1NC(=O)[C@H](C)NC(=O)[C@H]([C@@H](C)O)NC(=O)CNC(=O)[C@H](CC(C)C)NC(=O)[C@H](CCC(N)=O)NC(=O)[C@H](CCCNC(=N)N)NC(=O)[C@@H]2CSSC[C@@H]3NC(=O)[C@@H]4CCCN4C(=O)[C@H](C(C)C)NC(=O)[C@H](CCC(N)=O)NC(=O)[C@H](CCC(N)=O)NC(=O)CNC(=O)[C@H](CC(C)C)NC(=O)[C@@H]4CSSC[C@H](NC(=O)[C@H]([C@@H](C)O)NC(=O)[C@H](C)NC(=O)[C@H](CSSC[C@@H](C(=O)N[C@@H](CO)C(=O)N[C@@H](CCC(N)=O)C(=O)N[C@H](C(N)=O)[C@@H](C)O)NC(=O)[C@@H]5CCCN5C(=O)[C@H](CC(N)=O)NC1=O)NC(=O)[C@@H]1CCCN1C(=O)[C@H](CC(=O)O)NC(=O)[C@H](CSSC[C@H](NC(=O)[C@H](CCC(N)=O)NC(=O)[C@H](CCC(N)=O)NC(=O)[C@H](CO)NC(=O)[C@@H](N)CO)C(=O)N[C@@H](C(C)C)C(=O)N[C@@H](CCCNC(=N)N)C(=O)N[C@@H](CC(C)C)C(=O)N[C@@H](Cc1c[nH]cn1)C(=O)N[C@@H](CCC(=O)O)C(=O)N[C@@H](CO)C(=O)N4)NC3=O)C(=O)N[C@@H](Cc1ccc(O)cc1)C(=O)N[C@H]1CSSC[C@H](NC(=O)[C@H](Cc3ccccc3)NC(=O)[C@H](C)NC(=O)[C@H](CC(N)=O)NC(=O)[C@H](Cc3ccccc3)NC(=O)[C@H](Cc3ccccc3)NC(=O)[C@H](CCCNC(=N)N)NC1=O)C(=O)N[C@@H](Cc1ccc(O)cc1)C(=O)N2 |  | Long-Evans rat, male | intracerebroventricular, 1.0 nmol, day 3, non-cumulative | baseline: saline | food intake | -3.45 ± 0.2 % above saline
CCCOC(=O)Cc1c(C)n(C(=O)c2ccc(Cl)cc2)c2ccc(OC)cc12 | hot plate test | BALB/c mice | 50 mg/kg, 90 min |  | latency of nociceptive response | 14.8 ± 0.76 s
O=C1/C(=C/c2ccccc2)Oc2c1c(O)cc(O)c2-c1ccc(O)c(O)c1 | DPPH scavenging, absorbance |  |  |  | EC50 | 80 µM
O=c1c(OCc2ccccc2)c(-c2cccc([N+](=O)[O-])c2)oc2ccccc12 |  | diabetic rat | 7.5 mg/kg, day 21, p-nitrophenyl β-glucoside induced |  | blood glucose | 183 ± 4.63 mg/dL
CCc1nnc(NS(=O)(=O)c2ccc(NC(=S)NC(=O)/C=C/c3ccc(F)cc3)cc2)s1 | immunostaining | athymic nude mouse, BE(2)-C xenograft, tumour | ip, 20 mg/kg daily, 3 weeks |  | cleaved caspase-3 level | increased
c1ccc(-n2c(-c3ccco3)nc3ccccc32)cc1 | ABTS scavenging, absorbance |  |  |  | IC50 | 1.62 µM
Cc1cc(O)cc(O)c1C(=O)c1c2c3c(c(O)cc(C)c3oc1=O)C(=O)c1c(O)cc(O)cc1-2 |  | Bel-7402 xenograft, mouse | intraperitoneal, 7 mg/kg, day 21 |  | T/C | 59.9%
CN(C)C(=O)c1ccnc(N2Cc3cn(Cc4ccc(F)cc4F)nc3C2)n1 | item: Olig2+ cell number | cuprizone-fed mice, corpus callosum | dose not given, unit not given | baseline: vehicle | effect size d | 0.89
CCN(CC)CCSc1nnc(C23CC4CC(CC(C4)C2)C3)n1C | paw oedema | rat | intraperitoneal, 20 mg/kg |  | inhibition in vivo | -1.42%
CSCC[C@@H]1NC(=O)[C@H](C)NC(=O)[C@H]([C@@H](C)O)NC(=O)CNC(=O)[C@H](CC(C)C)NC(=O)[C@H](CCC(N)=O)NC(=O)[C@H](CCCNC(=N)N)NC(=O)[C@@H]2CSSC[C@@H]3NC(=O)[C@@H]4CCCN4C(=O)[C@H](C(C)C)NC(=O)[C@H](CCC(N)=O)NC(=O)[C@H](CCC(N)=O)NC(=O)CNC(=O)[C@H](CC(C)C)NC(=O)[C@@H]4CSSC[C@H](NC(=O)[C@H]([C@@H](C)O)NC(=O)[C@H](C)NC(=O)[C@H](CSSC[C@@H](C(=O)N[C@@H](CO)C(=O)N[C@@H](CCC(N)=O)C(=O)N[C@H](C(N)=O)[C@@H](C)O)NC(=O)[C@@H]5CCCN5C(=O)[C@H](CC(N)=O)NC1=O)NC(=O)[C@@H]1CCCN1C(=O)[C@H](CC(=O)O)NC(=O)[C@H](CSSC[C@H](NC(=O)[C@H](CCCNC(=N)N)NC(=O)[C@H](CCCNC(=N)N)NC(=O)[C@H](CO)NC(=O)[C@@H](N)CO)C(=O)N[C@@H](C(C)C)C(=O)N[C@@H](CCCNC(=N)N)C(=O)N[C@@H](CC(C)C)C(=O)N[C@@H](Cc1c[nH]cn1)C(=O)N[C@@H](CCC(=O)O)C(=O)N[C@@H](CO)C(=O)N4)NC3=O)C(=O)N[C@@H](Cc1ccc(O)cc1)C(=O)N[C@H]1CSSC[C@H](NC(=O)[C@H](Cc3ccccc3)NC(=O)[C@H](C)NC(=O)[C@H](CC(N)=O)NC(=O)[C@H](Cc3ccccc3)NC(=O)[C@H](Cc3ccccc3)NC(=O)[C@H](CCCNC(=N)N)NC1=O)C(=O)N[C@@H](Cc1ccc(O)cc1)C(=O)N2 |  | Long-Evans rat, male | intracerebroventricular, 1.0 nmol in 1.0 µL, 24 h, non-cumulative | baseline: saline | food intake | 97.7 ± 10.1 % above saline
O=c1c(OCc2ccccc2)c(-c2ccc([N+](=O)[O-])cc2)oc2ccccc12 |  | diabetic rat | 7.5 mg/kg, day 21, p-nitrophenyl β-glucoside induced |  | blood glucose | 199 ± 4.8 mg/dL

SMILES | test | test system | setting | how to read | measurement | result
CCOc1ccc(C[C@@H]2NC(=O)[C@@H](N)CSSC[C@@H](C(=O)N3CCC[C@H]3C(=O)N[C@@H](CC(C)C)C(=O)NCC(N)=O)NC(=O)[C@H](CC(N)=O)NC(=O)[C@H](CCC(N)=O)NC(=O)[C@H]([C@@H](C)CC)NC2=O)cc1 | antagonist | Bufo marinus urinary bladder | together with: [8-arginine]-vasopressin |  | pA2 | 6.66
CC[C@@H](C)N([11CH3])C(=O)c1nc(-c2ccccc2)c2ccccc2n1 | PET from VT | rhesus monkey, cerebellum | dose not given |  | TSPO specific binding | 42%
Cc1cc2nc(-c3cc4ccccc4nc3Cl)[nH]c2cc1C |  | mouse HepG2 xenograft | 10 mg/kg, day 41 |  | T/C tumor increment | 31.3%
O=C(O)c1ccc2[nH]cc(-c3ccc4cc(O)ccc4c3)c2c1 | Aβ plaque burden, immunohistochemistry | APP/PS1 mice, cortex | dose not given |  | reduction | 30%
Cc1ccc(-c2oc3ccccc3c(=O)c2OCc2ccccc2)cc1 |  | diabetic rat | 7.5 mg/kg, day 28, p-nitrophenyl β-glucoside induced |  | blood glucose | 150 ± 3.89 mg/dL
COc1ccc(C2CC(c3ccc(C)cc3)=Nc3ccccc3S2)cc1 (stereo not shown) |  | Wistar rat, STZ-induced diabetes | oral, 20 mg/kg once daily, day 1 |  | blood glucose | 380 ± 5.08 mg/dL
O=C1c2c(cc(O)c3c2oc2cc(O)c(O)cc23)OC1Cc1ccc(O)cc1 (stereo not shown) | DPPH scavenging, absorbance |  |  |  | EC50 | 280 µM
COc1cc(CN2CCN(c3ccc([N+](=O)[O-])cc3)CC2)c2cc3[n+](cc2c1O)CCc1cc2c(cc1-3)OCO2 | ABTS scavenging, absorbance |  | 10 min |  | IC50 | 8.79 µg/mL
CC(=O)[O-].O.O.O.O.[Ni+2].[O-]c1ccc(Br)cc1C=NCCN1CCOCC1 | nitric oxide scavenging |  | 240 µM |  | inhibition | 56.5%
Cc1nc(C)c(C=[N+]([O-])C(C)(C)C)nc1C | immunofluorescence, item: 8-OHdG | MPTP mouse model, substantia nigra | 30 mg/kg | baseline: sham | fluorescence intensity | 166 ± 6.84%
COc1ccc2c(c1)c(CC(=O)OCOC(C)=O)c(C)n2C(=O)c1ccc(Cl)cc1 | hot plate test | BALB/c mice | 50 mg/kg, 30 min |  | latency of nociceptive response | 14.9 ± 1.43 s
Cc1ccc(=O)n(-c2ccc(O)cc2)c1 | H&E staining | BALB/c mouse, CCl4 liver injury, liver | oral, 1 mmol/kg daily, 4 weeks |  | hepatic ballooning and inflammation | decreased
COc1c2c(cc3oc(C)cc(=O)c13)O[C@H](C(C)(C)O[C@@H]1O[C@H](CO)[C@@H](O)[C@H](O)[C@H]1O)C2 | analgesic effect | mouse | oral, 1 mg/kg, 1 h |  | hot plate latency | 9.55 ± 1.89 s
CN(C)c1ccc(-c2oc3ccccc3c(=O)c2OCc2ccccc2)cc1 |  | diabetic rat | 7.5 mg/kg, day 21, p-nitrophenyl β-glucoside induced |  | blood glucose | 165 ± 4.42 mg/dL
O=C(NCCN1C(=O)C=CC1=O)[O][Pt-2]12([O]C(=O)NCCN3C(=O)C=CC3=O)([NH2+][C@@H]3CCCC[C@H]3[NH2+]1)[O]C(=O)C(=O)[O]2 | H&E histology | BALB/c mouse CT26 allograft, tumour | dose not given, day 12 |  | mitotic cell fraction reduction | ~50%
CC[C@H]1[C@@H](O)[C@@H]2[C@H](CC[C@]3(C)[C@@H]([C@H](C)CCOS(=O)(=O)[O-])CC[C@@H]23)[C@@]2(C)CC[C@@H](O)C[C@@H]12.[Na+] | immunohistochemistry, item: galectin-3 | ob/ob NASH mouse model, liver | 10 mg/kg, 16 weeks |  | fractional area | 2.9 ± 0.1%
O=c1c(OCc2ccccc2)c(-c2ccc(Cl)cc2)oc2ccccc12 |  | diabetic rat | 5 mg/kg, day 14, p-nitrophenyl β-glucoside induced |  | blood glucose | 210 ± 4.77 mg/dL
COc1ccc2c(c1OC)C(C(Cl)(Cl)Cl)N1CCc3cc4c(cc3C1=C2)OCO4 (stereo not shown) |  | rat, STZ-induced diabetic, liver | oral, 12 mg/kg, day 28 |  | catalase activity | 33.8 ± 1.39 U/mg protein

Some of these lines once more:
SMILES | test | test system | setting | how to read | measurement | result
Cc1ccc(=O)n(-c2ccc(O)cc2)c1 | H&E staining | BALB/c mouse, CCl4 liver injury, liver | oral, 1 mmol/kg daily, 4 weeks |  | hepatic ballooning and inflammation | decreased
Cc1ccc(-c2oc3ccccc3c(=O)c2OCc2ccccc2)cc1 |  | diabetic rat | 7.5 mg/kg, day 28, p-nitrophenyl β-glucoside induced |  | blood glucose | 150 ± 3.89 mg/dL
